Measured values pooled from the literature.
Parts stem from different laboratories: compare values within a part only.

Sample 1
Target: Interferon regulatory factor 5, full length, phosphomimetic (IRF5, Homo sapiens, UniProt Q13568-2, residues 1-514, K96S/S451D/S453D/S456D/S462D)
Method: protein-binding microarray
Molecule type: double-stranded DNA, one strand shown
Sample: in vitro
Concentration: 250 nM
Setting: 60-bp whole probe
Together with: salmon DNA 0.4 mg/ml
Baseline: random background probes
Reading: higher = stronger binding
Constant ends, left off below: GCCTAGCAC … GTCTTGATTCGCTTGACGCTGCTG
Strand	log fluorescence [z-score]
TTGCTTTCCTTTATGTACTCGTGCTAG	2.03
TTGGGTATCGACTTTCGGTTAGTGCTA	9.64
GACGGTCTCAGACTGGGGACGTGCTAG	-0.394
GTCGATATCAGTCTCGAGACGTGCTAG	2.35
CTCTTTTTGCTTTCTTTATGGTGCTAG	2.57
GACGATCTGAGTTTCGAGACGTGCTAG	3.84
TTAGGTTTCCTATCCCTTTAGTGCTAG	0.859
TTAGGTTTCGTTATCGGTTAGTGCTAG	9.63
TTAGGTATCCTTCTCCCTTAGTGCTAG	0.456
TTAGGTTCCGGTTTCGGTTTGTGCTAG	9.46
GACGGTTTGCTTTTCCTGACGTGCTAG	0.258
TTACGTATCGGTCTCGGTTAGTGCTAG	8.14
ATAGATCTCAGTTTCGATTAGTGCTAG	9.09
GAAGGTATCGACTATCGGGACGTGCTA	3.65
CTCCCTCTGTAAGTCAGCACGTGCTAG	-0.327
TTAGGTATCCTTTTACTTTAGTGCTAG	1.06
GAAGGTTTCGGTCTCGGGACGTGCTAG	9.24
GACGGTTTCGTTTCCCTGACGTGCTAG	6.32
GACTAACTGAGTCTCGAGACGTGCTAG	-0.0962
TCAGCTTTCTTTATGTAACTGTGCTAG	1.38
CTAGTTAAGGTACACCAGCAGTGCTAG	-0.227
GACGGTTTCCTAGTGCTGACGTGCTAG	-0.143
GACGGTTTCGGGACTGGGGAGGTGCTA	4.74
TCAGACTTTGGTTTGTAACTGTGCTAG	0.164

Sample 2
Target: Centromere-binding protein 1, full length, His-tagged (CBF1, Saccharomyces cerevisiae, UniProt P17106, residues 1-351)
UniProt P17106, sequence (whole entry, looked up): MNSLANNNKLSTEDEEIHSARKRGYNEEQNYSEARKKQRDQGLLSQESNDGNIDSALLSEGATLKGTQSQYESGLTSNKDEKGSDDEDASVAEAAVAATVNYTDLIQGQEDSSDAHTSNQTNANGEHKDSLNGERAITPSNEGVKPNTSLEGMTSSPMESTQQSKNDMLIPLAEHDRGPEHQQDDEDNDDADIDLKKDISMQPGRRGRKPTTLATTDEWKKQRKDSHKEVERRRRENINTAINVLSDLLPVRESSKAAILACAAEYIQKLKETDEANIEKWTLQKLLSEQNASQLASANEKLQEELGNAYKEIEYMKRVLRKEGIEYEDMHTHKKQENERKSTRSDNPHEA
Method: competition protein-binding microarray
Molecule type: double-stranded DNA, one strand shown
Sample: in vitro
Concentration: 2 µM
Setting: whole 60-bp probe, lowest competitor level
Together with: Pho4 competitor, 0.05 µM
Reading: higher = stronger binding
Constant ends, left off below: … GTCTTGATTCGCTTGACGCTGCTG
Strand	fluorescence intensity
CTTCTGTAAATTTGAACCGTGGGTGGACGCGCCCCG	66.7 a.u.
CATACCCAACCTTGGCGCGTGGGTGAAGATATTTGT	78.6 a.u.
CGTCCTAGTGATTTTCACGTGTAGTCCATGAGGAAG	747 a.u.
CACCCAAGCGTTAGGCACGTGTGGGCCGGAGTTTAC	525 a.u.
CTTCTGTAAATTTGTCACCGTACTTGACGCGCCCCG	87.4 a.u.
TAGGGGCTCTCACAAAACGGGCACTACCTTTTGTTT	62.3 a.u.
AGCCGGCTATTTACCCACGTCCGGTATCTCAAAGGA	55.5 a.u.
TGCGCAACAACTTTTCACGTGGTCTTATGTCTAGAA	1280 a.u.
TGCGCAACAACTTGTCCCGTGGGTGTATGTCTAGAA	95.6 a.u.
TCTGCATATTTGTAAAACGTGCAAAAAAGTAAAGAA	238 a.u.
CTTCTGTAAATTTTTCACGTGGGGTGAAGCGCCCCG	613 a.u.
TTGTCTGTGCATTGGCATGTGCAAGCATTCGATGAA	101 a.u.
TTGACACCATGTTTGCACATGTTACCTGCCGACTAC	166 a.u.
TGTTGAGTTACACCCCGCGTGCTAAAAAAGGGGTGA	101 a.u.
CATACCCAACCTTGAAAAGTGGGTGAAGATATTTGT	77.4 a.u.
TGCGCAACAACTTTTCACGTGCCTTTATGTCTAGAA	1550 a.u.
ATCGCTTTGCATCCTTACGTGCGGAAGATGGCATCG	101 a.u.
ACTATGAGAGCTTGGTGCGTGGCCGAAAGGAATAAA	64.3 a.u.
CCATATCAGACTGCCCGCGTGGGTATAATTCTGAGG	96.6 a.u.
TTGCAGCTGTTGGCGCGCGTGGTGATGCTGACGTTC	69.8 a.u.
TTATTTTATCAGAGCACCGTGGTCGACATCCAACGG	60.9 a.u.
TGCGCAACAACTTGAATAGTGGGTGTATGTCTAGAA	59.6 a.u.
ATTACAGAAGAACCCCTCGTGACGGCTGGATTACTG	330 a.u.
GATCCTGAGAGGTCCCATGTGCTTTCCAATAACAGT	131 a.u.
GTAACCAGACAAGTCAGCGTGAGGACAGTTGGATTC	82.5 a.u.

Sample 3
Target: RING finger protein unkempt homolog, zinc fingers 1-6, SBP tag (UNK, Homo sapiens, UniProt Q9C0B0, residues 30-357)
UniProt Q9C0B0, sequence (30-357, looked up): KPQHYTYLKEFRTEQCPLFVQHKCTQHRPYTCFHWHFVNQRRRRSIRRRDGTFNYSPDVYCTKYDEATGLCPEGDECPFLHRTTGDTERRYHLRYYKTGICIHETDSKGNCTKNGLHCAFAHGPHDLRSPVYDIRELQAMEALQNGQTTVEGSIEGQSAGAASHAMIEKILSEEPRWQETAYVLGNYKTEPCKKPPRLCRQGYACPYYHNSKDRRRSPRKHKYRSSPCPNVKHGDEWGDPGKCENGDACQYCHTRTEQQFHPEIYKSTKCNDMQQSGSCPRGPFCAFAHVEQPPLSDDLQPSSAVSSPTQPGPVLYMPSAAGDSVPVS
Method: RNA Bind-n-Seq
Molecule type: RNA
Sample: in vitro
Concentration: 100 nM
Setting: RNA with constant flanks, vertebrate orthologous sites, ends assumed
Baseline: input RNA pool
Reading: higher = stronger binding
Constant ends, left off below: GGGAGUUCUACAGUCCGACGAUC … CAACAGAGGAUUGAGCAUCA
Strand	bound/input enrichment [ratio]
CAGCUGAUUCACUUAUUGGGAGAGCUGCACAUAUUGCUGUUCUUGAUUCAGAAAUAUUUUUAGAAAAAUUCUUUCUGGUGGCUGCUCUAAAAUAUUUCCAGUAGCAUAAAAGCAUUGUUA	0.656
AUUCAACAAAAAAUGUUUCCACUGGGUUUUUUUCUGUAAGAAAAAAUGAACCCAAACAUAUAGAGCUUUUUCAUAGCACUAACCAAUGCCUUUUUAGAUGUAUUUUUGAUGUAUAUAUCU	0.755
CUUCCUCCAACUUCGAUUUUCAGGUUGUAGCUGAUCCUUUUUUUUUCCCCCCAUUUAAACUGCUCUUUUGCUUUCUCCCUCCACUUCAAAUACACAAGUUCUUCCCUUUUGCAUCUUUGU	1.26
CCUUCAACUUGUUCUAGCUGAUGAUCCUUCCAAGUUGGGUCAGGCAUUAGUGCUAGGUACGAACAAUGUUCAUUUCUCUGUUGCCAUUGAUCAGAGACAGACAUUAAAAACAGUCAUAUA	0.517
AACAGCAUAAGCUGUUUAAGCUGUGGGAAAAUGAGCUUUGCUUUUUUUUAUAUAUUUAAAUAGGAUACUUUUGUAUGAUGGGUGCUUUGAGUACGAAUGCAGCAGGCUCUCUAUUUCAGA	0.783
UCUGUAGUUCUUUCAUUAUAAUUGAUUGAGUUAAGGAGGUGGUAAAUUUACCACUACAGGACUGCACACCCUGUUUUUGUUUUUAAUGCAUAUGUUUUUUAUUAGUUAUGGGUAUAAUUC	1.02
CCAAACUGAUGCUACUGUAUAACAAUUAAAAUGGGUUCUCCUAUUUCUUCAAUGAGGGGGAAAAUGCCUUACACGUCUGAUAAUGCCAUUCUGCUUUUGCUUUCUAUUUUCACAUAAGCA	0.458
GUGACUUUGGACGUCCGUUCAUCCUCCGUGUAGGGUUUACUUAGUGACGGGCCUUCCACUUUUGGUUUUUUCUUCUGGACAGGAGGCCUCUGCCGCAACCAUGUUACGCCAGAUUAUCGG	0.281
UAUUUUCUUAUUUUAGGUAUCAUUGCCCAGUGCCUAAGAUCUUUUAUGUUCAGCUCACUGUAGGAAAUAAUGAAUUUUUGGGGGAAGGAAAGACUCGACAAGCUGCUAGACACAAUGCUG	1.13
UCCUCUGAACCCCAUAUCUUCUGUUUCAUAGUGCAGAAGUACUCUUUUCAAUUCUAUUAUUAGUGGACUUGUUUUAAUUUUAGGGAAACUUUCAGUACAGAUACUGUGAGCUUACAUGGA	2.04
UUCCAUCUUGAGUUGGCCUCAUAUCUGUAGAAGAUGUAACAUUUUGCAACAAAUGUAUUAUAUCUAGUUAAGCUGAGUUUCAUAUUUUUUUAUUAGUCUGUAAAUAAAGAUGGGGUCUUA	0.975

Sample 4
Target: RNA binding protein fox-1 homolog 2, RRM domain, GST-SBP tag (RBFOX2, Homo sapiens, UniProt O43251-10, residues 100-194)
Method: RNA Bind-n-Seq
Molecule type: RNA
Sample: in vitro
Concentration: 365 nM
Setting: natural RNA segment, single round, ends assumed
Baseline: no-protein control
Reading: higher = stronger binding
Constant ends, left off below: GGGAGUUCUACAGUCCGACGAUC … UGGAAUUCUCGGGUGCCAA
Construct (chain): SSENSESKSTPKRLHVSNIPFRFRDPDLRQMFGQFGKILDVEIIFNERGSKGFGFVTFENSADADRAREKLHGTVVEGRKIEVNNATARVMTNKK
Strand	RBNS enrichment (R)
CUGUCUCAAAGAACAUUAAACUCUUCUGGAACUGGCCCUUGACAGCCUGGGACCAGGGAAACUUUUCACACCAUCUUGGUCUUUGUCACAGGAAUCUAAAACCAGCCAUU	0.356
AGAUGAAACCUGUAUAUUAGGUGUUCAUGUGGUUAUUUUGUAUUUAAAGAUCAAAUUAUUUGAUUAUUGCUAGACAUUUCUAUACUCUGUUGUAACACUGAGGUAUCUCA	0.974
GAAGGUUGGGAUCAAUCUUGUCAAGUCUAUGUUACACUUACUUUUACAAAAAAAAGUAUAUAUACAUAUUAUCAGCACACAAAAGCAACUCUGAGGUUGCUAGUGACAUU	0.463
CAGUGAAAUAAAUACAAUACCAGAGUACAUUAUGGGUUUUAUUGCUUUCUUUUAUGGUAGACCUGUUAAUGGGGAAAAAAUACAUCAAAUCAAAUAGAAUCUUAUAUCUG	0.356
GUGGGUCUUGGGAUGGGCUGGAACAGGGUUCCUGCCUGAGUAGGUGGAACUGGCAACCUUGAAGGGUGAUUCCCCCCCACCCCCAGAGGAUCAGCUGCCUGUGGUUGGGA	1.06
UGGAAGAGGAGUCCUGAUCAGGCCUCACCCCUCCCCUGGGACUUUCCCACCCAGGAAAGGAGGACCAGUCAGGAUGAGGCCCCGCCUUUUCCCCCACCCUCCCAUGAGAC	0.339
CUUCAGGGCAGCCAAAGCCAGCCCUUUUCUCCUACUGCCCCCAGGAGAAAUAGCACUCUUCUCCCUUCCCCCAGAUGGCAGGGCUCUGGCCUCCCUACACCUCAUACCCU	0.511
AAAGCACGGCUUACUUCAUCUGCUCCUUACACACUAAAAUGCUCUUAGUGUGCUCAACUACAGAGAUAGCCGCUGCUGAGUGAUGUAGAUUUUCUACUUGAAUAUUUUUA	0.609
UCCACUGAGGCAGUUUCUGGUACUCCUAUGCAAUAUUACUUAGCUUUUUUAUUGUAAAAAGAGAAUCAACUCAACUGUCAGUACUGAGAAGGGAUUUGGGUGUAGGGGCA	2.24
UUUCCCAUUAAGUCUGAGAGGCAAGAGCUAGGUUAGGCAAGGAGGUGGUUGGCCAGAGAUGGGGAACAGCCAGGUGCCCCAGUCCUCUGAUUUUUCCUCCAUCCUGCUUA	0.504
CCAGUGCAAGCGCCAGGUGAUCUGUGUCUGAGGAUACGAUUUUGAACCUUAUGAGCAGUGUACAAAUAUCAUGAGACAACUGAUCAGCACUUGCACCUGAUCAAGAGCAG	0.387
AAGAAGUUUAUUCUCAUUUGGGAGAUCUGGUGAUCUCCCAAGCUAUCUAAAGUUUGUUAGAUAGCUGCAUGUGGCUUUUUUAAAAAAGCAACAGAAACCUAUCCUCACUG	5.19

For quick reference, copied from above (sample 2):
Strand	fluorescence intensity
TGCGCAACAACTTTTCACGTGCCTTTATGTCTAGAA	1550 a.u.
TTGTCTGTGCATTGGCATGTGCAAGCATTCGATGAA	101 a.u.
GATCCTGAGAGGTCCCATGTGCTTTCCAATAACAGT	131 a.u.
TGCGCAACAACTTTTCACGTGGTCTTATGTCTAGAA	1280 a.u.
CTTCTGTAAATTTGTCACCGTACTTGACGCGCCCCG	87.4 a.u.
